Assay results from different studies.
Parts stem from different laboratories: compare values within a part only.

Series 1 — technique: RNA Bind-n-Seq; molecule type: RNA; sample: in vitro; concentration: 200 nM; notes: whole 134-nt RNA, ends assumed; together with: 150 mM LiCl; relative to: input library; direction: higher = stronger binding; all molecules: 7-deaza-guanosine replaces G
Target: Ras GTPase-activating protein-binding protein 1, full length (G3BP1, Homo sapiens, UniProt Q13283)
UniProt Q13283, sequence (whole entry, looked up): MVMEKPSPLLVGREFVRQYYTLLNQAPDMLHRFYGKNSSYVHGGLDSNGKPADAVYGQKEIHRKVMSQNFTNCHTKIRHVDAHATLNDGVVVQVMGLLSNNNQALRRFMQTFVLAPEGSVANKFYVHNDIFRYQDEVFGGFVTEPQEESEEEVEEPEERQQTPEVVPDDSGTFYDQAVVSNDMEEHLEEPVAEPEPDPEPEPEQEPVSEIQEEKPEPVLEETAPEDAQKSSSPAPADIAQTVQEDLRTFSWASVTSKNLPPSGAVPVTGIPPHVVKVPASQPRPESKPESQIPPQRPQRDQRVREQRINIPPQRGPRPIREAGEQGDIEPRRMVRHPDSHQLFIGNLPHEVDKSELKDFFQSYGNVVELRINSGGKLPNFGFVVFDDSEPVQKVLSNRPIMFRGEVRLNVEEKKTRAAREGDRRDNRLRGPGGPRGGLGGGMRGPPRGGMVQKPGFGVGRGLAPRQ
Strand	log2 enrichment
GGGAGUUCUACAGUCCGACGAUCCUGUGCUACACAUCGUAUGUACCGAAUCGGAAAAAAAGGGAAAAAAAGGGGAAAAAAAGGGGAAAGUAUUAUGUUACGCCGUUCGGAUCUUGGAAUUCUCGGGUGUCAAGG	0.116
GGGAGUUCUACAGUCCGACGAUCUAACUUUAGAGGAGGAUCUGAUGGAUAUGGCAGUGGACGUGGAUUUGGGGAUGGCUAUAAUGGGUAUGGAGGAGGACCUGGAUGUGGCAAUGGAAUUCUCGGGUGUCAAGG	-0.268
GGGAGUUCUACAGUCCGACGAUCCUGUGCUACACAUCGUAUGUACCGAAUCGGGAAAAAAAGGAAAAAAAGGGGAAAAAAAGGGGAAAGUAUUAUGUUACGCCGUUCGGAUCUUGGAAUUCUCGGGUGUCAAGG	0.212

Series 2 — technique: aptamer microarray, sandwich; molecule type: DNA with 2'F-ANA; sample: in vitro; concentration: 200 nM; together with: Cy3 exosite-II aptamer, 400 nM; direction: higher = stronger binding; strand: GGTTGGTGTGGTTGG
Target: Prothrombin, mature alpha-thrombin (F2, Homo sapiens, UniProt P00734)
Notes: whole 15-mer aptamer, many near background
Modification	mean fluorescence intensity [a.u.]
2'F-ANA at 1 2 5 7 8 15	76.7
2'F-ANA at 1 2 3 4 5 7 10 12 13 15	47.2
2'F-ANA at 5 9 10 11 12 13	50.3
2'F-ANA at 1 3 4 5 6 7 10 13 14 15	45.6
2'F-ANA at 1 4 5 7 8 11 15	54.2

Series 3 — technique: universal PBM; molecule type: double-stranded DNA, one strand shown; sample: in vitro; concentration: 600 nM; direction: higher = stronger binding
Target: Sal-like protein 4, full length isoform A (SALL4, Homo sapiens, UniProt Q9UJQ4, residues 1-1053)
UniProt Q9UJQ4, sequence (whole entry, looked up): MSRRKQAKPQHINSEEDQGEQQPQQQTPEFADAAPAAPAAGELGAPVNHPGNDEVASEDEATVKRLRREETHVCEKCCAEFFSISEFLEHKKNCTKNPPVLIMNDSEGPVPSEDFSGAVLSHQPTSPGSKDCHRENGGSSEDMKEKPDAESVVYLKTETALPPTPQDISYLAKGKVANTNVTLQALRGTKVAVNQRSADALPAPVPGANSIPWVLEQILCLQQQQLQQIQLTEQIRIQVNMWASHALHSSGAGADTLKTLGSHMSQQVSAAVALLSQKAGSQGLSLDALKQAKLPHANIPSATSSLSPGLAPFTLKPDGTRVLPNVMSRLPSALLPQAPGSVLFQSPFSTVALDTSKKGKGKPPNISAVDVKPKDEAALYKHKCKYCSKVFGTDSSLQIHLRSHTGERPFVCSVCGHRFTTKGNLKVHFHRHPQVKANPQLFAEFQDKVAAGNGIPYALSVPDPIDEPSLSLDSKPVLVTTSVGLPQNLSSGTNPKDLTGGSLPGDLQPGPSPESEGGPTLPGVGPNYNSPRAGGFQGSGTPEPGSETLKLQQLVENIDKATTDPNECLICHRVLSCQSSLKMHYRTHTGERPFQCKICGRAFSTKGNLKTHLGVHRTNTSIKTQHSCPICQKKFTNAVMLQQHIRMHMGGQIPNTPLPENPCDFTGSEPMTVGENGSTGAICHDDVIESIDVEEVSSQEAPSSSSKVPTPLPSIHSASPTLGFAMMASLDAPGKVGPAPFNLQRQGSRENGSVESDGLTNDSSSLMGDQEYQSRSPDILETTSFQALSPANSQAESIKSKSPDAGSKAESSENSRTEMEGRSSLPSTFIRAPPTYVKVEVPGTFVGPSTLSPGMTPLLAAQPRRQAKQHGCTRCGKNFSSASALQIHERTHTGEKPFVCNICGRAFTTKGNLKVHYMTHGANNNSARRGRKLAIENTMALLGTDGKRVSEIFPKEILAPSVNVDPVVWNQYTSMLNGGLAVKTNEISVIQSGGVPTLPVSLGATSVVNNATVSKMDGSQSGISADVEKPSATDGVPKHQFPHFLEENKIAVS
Notes: 8-mer, flanks averaged, mean of replicates
Strand	E-score
GCGTTACC	-0.248
GAATGCCA	-0.0289
ATACAAAA	0.343
ATATCAAT	0.365
CCCCGATA	-0.0174
TACATCAA	0.254

Single results of other studies
Substance	target	assay	system	setting	scale	quantity	value
PhoQ, residues 284 288 289 292 302 303 AGCYAI	PhoP, residues 12 14 15 18 19 NQCAL (Escherichia coli, UniProt P23836)	Sort-seq, measured: YFP reporter	E. coli	PhoQ-PhoP variant library, together with: 10 µM Mg2+	relative to: high Mg2+ state, higher = stronger signaling	fold induction	23.6

A few entries again (series 2):
Modification	mean fluorescence intensity [a.u.]
2'F-ANA at 1 2 3 4 5 7 10 12 13 15	47.2
2'F-ANA at 1 3 4 5 6 7 10 13 14 15	45.6
